# Assay results from different studies.
# Parts stem from different laboratories: compare values within a part only. Positions count from the first letter of the parent shown.
# UniProt P93022, sequence (whole entry, looked up): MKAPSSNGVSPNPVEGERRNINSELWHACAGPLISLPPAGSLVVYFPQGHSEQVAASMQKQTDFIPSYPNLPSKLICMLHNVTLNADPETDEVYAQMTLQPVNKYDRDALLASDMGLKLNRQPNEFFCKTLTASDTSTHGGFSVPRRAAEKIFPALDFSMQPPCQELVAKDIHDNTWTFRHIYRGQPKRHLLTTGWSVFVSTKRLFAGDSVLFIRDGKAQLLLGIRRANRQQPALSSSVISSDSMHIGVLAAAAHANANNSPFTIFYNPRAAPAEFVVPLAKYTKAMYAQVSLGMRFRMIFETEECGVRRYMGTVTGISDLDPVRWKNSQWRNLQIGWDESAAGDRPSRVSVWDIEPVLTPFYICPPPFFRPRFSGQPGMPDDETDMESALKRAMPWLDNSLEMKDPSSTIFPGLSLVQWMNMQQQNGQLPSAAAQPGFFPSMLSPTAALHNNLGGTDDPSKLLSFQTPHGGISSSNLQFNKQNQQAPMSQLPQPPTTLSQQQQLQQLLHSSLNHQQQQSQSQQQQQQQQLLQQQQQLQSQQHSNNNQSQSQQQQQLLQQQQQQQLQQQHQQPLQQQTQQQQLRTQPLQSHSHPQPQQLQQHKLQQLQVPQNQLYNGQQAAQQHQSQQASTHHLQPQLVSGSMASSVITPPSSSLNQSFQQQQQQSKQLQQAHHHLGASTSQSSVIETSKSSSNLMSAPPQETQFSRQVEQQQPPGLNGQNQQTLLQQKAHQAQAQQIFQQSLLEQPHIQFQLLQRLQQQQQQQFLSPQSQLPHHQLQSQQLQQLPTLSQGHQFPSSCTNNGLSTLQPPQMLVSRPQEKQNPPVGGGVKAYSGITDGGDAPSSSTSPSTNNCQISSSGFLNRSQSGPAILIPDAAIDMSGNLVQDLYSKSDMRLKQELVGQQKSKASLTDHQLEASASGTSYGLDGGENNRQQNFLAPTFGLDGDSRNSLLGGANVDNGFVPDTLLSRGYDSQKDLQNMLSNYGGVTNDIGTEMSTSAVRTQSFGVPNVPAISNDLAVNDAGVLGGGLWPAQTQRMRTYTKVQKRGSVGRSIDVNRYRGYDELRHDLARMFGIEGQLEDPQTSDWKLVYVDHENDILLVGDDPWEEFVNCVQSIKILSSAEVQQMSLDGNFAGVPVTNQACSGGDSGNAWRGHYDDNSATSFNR
# UniProt P93830, sequence (whole entry, looked up): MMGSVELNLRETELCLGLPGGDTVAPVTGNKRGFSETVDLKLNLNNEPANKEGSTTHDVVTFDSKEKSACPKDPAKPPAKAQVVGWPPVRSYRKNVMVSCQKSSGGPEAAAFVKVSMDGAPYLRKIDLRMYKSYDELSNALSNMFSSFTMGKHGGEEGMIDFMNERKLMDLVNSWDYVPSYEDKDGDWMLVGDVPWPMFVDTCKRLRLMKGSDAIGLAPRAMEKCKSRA
# UniProt Q9M1R4, sequence (whole entry, looked up): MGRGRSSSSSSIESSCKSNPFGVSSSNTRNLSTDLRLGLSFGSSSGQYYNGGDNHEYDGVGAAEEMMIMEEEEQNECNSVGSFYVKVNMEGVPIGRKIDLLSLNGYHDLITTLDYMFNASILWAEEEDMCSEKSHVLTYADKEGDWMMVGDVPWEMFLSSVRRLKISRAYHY
# UniProt Q93WC4, sequence (whole entry, looked up): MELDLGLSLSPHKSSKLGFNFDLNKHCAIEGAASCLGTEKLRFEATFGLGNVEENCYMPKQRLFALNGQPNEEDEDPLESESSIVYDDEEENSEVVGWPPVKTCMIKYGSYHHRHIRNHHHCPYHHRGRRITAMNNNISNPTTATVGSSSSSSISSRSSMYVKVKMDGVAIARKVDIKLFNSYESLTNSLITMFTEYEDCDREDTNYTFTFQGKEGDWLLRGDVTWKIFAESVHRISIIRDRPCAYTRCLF
# UniProt Q8H174, sequence (whole entry, looked up): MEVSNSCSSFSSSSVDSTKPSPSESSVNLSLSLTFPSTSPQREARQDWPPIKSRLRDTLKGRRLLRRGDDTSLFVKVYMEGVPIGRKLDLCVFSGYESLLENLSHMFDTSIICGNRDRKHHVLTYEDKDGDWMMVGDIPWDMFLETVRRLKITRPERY
# UniProt Q84WU6, sequence (whole entry, looked up): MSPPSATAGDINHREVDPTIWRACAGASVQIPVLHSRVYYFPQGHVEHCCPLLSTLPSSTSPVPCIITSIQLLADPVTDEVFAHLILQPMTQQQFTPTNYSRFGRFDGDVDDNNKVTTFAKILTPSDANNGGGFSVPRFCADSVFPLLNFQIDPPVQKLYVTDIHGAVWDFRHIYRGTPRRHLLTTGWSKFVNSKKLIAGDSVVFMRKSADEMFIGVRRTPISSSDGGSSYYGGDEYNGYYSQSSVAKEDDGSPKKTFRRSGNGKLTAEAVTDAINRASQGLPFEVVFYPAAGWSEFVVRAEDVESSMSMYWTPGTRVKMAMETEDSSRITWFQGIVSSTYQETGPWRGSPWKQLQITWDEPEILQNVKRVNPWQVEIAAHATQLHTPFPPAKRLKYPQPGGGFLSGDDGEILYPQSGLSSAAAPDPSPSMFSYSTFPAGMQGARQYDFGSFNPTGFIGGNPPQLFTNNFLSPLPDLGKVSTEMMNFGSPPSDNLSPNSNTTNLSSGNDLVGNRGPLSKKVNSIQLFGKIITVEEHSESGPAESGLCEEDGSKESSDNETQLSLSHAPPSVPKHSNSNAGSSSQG
# UniProt Q9ZTX9, sequence (whole entry, looked up): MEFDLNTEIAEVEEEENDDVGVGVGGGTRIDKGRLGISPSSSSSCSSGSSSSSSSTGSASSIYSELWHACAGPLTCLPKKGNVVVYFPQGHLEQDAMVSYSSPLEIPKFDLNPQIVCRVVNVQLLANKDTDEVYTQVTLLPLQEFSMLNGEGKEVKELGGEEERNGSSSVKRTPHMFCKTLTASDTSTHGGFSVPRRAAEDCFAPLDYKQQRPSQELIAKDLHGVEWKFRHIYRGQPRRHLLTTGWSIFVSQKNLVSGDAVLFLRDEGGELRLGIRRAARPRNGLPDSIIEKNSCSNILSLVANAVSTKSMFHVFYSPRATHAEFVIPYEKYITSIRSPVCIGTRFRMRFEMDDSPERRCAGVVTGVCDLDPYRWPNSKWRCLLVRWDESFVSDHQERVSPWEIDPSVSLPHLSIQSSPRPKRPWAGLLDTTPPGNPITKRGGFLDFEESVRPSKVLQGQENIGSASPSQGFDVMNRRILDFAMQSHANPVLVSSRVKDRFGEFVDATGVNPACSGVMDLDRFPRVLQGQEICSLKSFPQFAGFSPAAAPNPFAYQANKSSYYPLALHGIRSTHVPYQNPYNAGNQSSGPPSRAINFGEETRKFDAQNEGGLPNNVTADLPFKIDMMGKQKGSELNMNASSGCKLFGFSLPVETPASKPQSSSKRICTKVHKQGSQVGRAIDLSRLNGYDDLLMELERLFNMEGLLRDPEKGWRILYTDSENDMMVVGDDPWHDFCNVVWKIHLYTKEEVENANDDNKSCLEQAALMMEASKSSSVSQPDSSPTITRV

# Set 1
# Target: Sal-like protein 4, full length isoform B (SALL4, Homo sapiens, UniProt Q9UJQ4-2, residues 1-616)
# Technique: universal PBM
# Form: double-stranded DNA, one strand shown
# Sample: in vitro
# Tested at: not given
# Setting: 8-mer, flanks averaged, mean of replicates
# Direction: higher = stronger binding
# Target sequence (chain): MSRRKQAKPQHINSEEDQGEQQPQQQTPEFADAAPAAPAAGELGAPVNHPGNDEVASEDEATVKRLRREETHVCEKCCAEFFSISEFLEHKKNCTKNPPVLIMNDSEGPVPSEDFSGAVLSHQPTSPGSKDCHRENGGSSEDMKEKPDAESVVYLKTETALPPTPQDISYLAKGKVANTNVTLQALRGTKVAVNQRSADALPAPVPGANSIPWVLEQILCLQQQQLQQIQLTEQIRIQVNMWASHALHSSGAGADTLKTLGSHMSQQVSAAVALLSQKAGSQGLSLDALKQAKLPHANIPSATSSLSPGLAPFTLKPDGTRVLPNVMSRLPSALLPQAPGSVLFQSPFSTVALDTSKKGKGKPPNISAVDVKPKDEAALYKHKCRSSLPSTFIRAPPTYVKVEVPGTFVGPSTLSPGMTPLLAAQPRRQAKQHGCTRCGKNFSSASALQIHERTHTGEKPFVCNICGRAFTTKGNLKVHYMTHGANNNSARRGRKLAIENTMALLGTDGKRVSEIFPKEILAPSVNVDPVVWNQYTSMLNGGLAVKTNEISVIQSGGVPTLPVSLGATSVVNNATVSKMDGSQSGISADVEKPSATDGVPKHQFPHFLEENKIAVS
Sequence,E-score
GCGCGTCA,-0.14
TCCCGGAA,-0.178
AGTTGTTC,0.0687
AAAGTAGA,0.202
ATCATGAG,0.0837
CCGAAGGA,-0.203
CAGTACGC,0.0204
ATACTTGG,0.082
GGGGAAAA,0.0337
CCAGAGAG,-0.243
GTGGGAGA,-0.137
AAGGGATG,-0.0311
AACACGCC,-0.232
TCCCGTCA,-0.0761
CGCGTTTA,0.183
ATAGGCGA,0.0303
AAAAAACC,0.0433

# Set 2
# Target: CDC34 UBC core domain (UniProt P49427)
# Technique: yeast two-hybrid
# Sample: yeast
# Setting: mostly zero background
# Baseline: not given
# Direction: higher = stronger interaction
# B1: SH3RF2 RING domain (UniProt Q8TEC5); chain DDLTLLDLLECPVCFEKLDVTAKVLPCQHTFCKPCLQRVFKAHKELRCPECRTPVFSNIEAL
# B2: TRAF5 RING domain (UniProt O00463); chain FVERLEERYKCAFCHSVLHNPHQTGCGHRFCQHCILSLRELNTVPICPVDKEVIKSQEVFK
# B3: TRIM40 RING domain (UniProt Q6P9F5); chain LQKDNQEEGVCPICQESLKEAVSTNCGHLFCRVCLTQHVEKASASGVFCCPLCRKPCSEEVLG
# B4: TRIM24 RING domain (UniProt O15164); chain EAARLNLLDTCAVCHQNIQSRAPKLLPCLHSFCQRCLPAPQRYLMLPAPMLGSAETPPPVPAPGSPVSGSSPFATQVGVIRCPVCSQECAERHII
# B5: TRIML1 RING domain (UniProt Q8N9V2); chain LMENLREELTCFICLDYFSSPVTTECGHSFCLVCLLRSWEEHNTPLSCPECWRTLEGPHFQS
# B6: NEURL1 RING domain (UniProt O76050); chain VTPGLGQWSDECTICYEHAVDTVIYTCGHMCLCYACGLRLKKALHACCPICRRPIKDIIKT
# B7: RNF111 RING domain (UniProt Q6ZNA4); chain EGTEEDTEEKCTICLSILEEGEDVRRLPCMHLFHQVCVDQWLITNKKCPICRVDIEAQLPSE
# B8: MKRN1 RING domain (UniProt Q9UHC7); chain FAVQRSKDMVCGICMEVVYEKANPSERRFGILSNCNHTYCLKCIRKWRSAKQFESKIIKSCPECRITSNFVIPSE
# B9: TRIM5 RING domain (UniProt Q9C035); chain LREVKLSPEGQKVDHCARHGEKLLLFCQEDGKVICWLCERSQEHRGHHTFLTEEVAREYQVKL
# B10: TRIM5 RING domain (UniProt Q9C035); chain ILVNVKEEVTCPICLELLTQPLSLDCGHSFCQACLTANHKKSMLDKGESSCPVCRISYQPENIRP
# B11: VPS41 RING domain (UniProt P49754); chain KGVLVDEENICESCLSPILPSDAAKPFSVVVFHCRHMFHKECLPMPSMNSAAQFCNICSAKNRGPGSAI
# B12: RC3H1 RING domain (UniProt Q5TC82); chain QAPQWTDFLSCPICTQTFDETIRKPISLGCGHTVCKMCLNKLHRKACPFDQTTINTDIELL
# Target sequence (chain): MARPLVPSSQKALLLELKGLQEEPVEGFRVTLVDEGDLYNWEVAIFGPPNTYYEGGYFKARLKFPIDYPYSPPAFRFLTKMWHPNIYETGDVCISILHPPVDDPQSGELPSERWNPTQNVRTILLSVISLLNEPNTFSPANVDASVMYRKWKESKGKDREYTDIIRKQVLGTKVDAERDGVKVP
Sequence,lacZ reporter activity
B1 (SH3RF2 RING domain),0
B2 (TRAF5 RING domain),0
B3 (TRIM40 RING domain),0
B4 (TRIM24 RING domain),0
B5 (TRIML1 RING domain),0
QVDKAVFHMQSVKCLKCQEQKRAVLPCQHAALCELCAEGSECPICQPGRAHTLQS (UNK RING domain (UniProt Q9C0B0)),0
B6 (NEURL1 RING domain),0
VEPSEENSKDCVVCQNGTVNWVLLPCRHTCLCDGCVKYFQQCPMCRQFVQESFALC (CGRRF1 RING domain (UniProt Q99675)),0
B7 (RNF111 RING domain),0
B8 (MKRN1 RING domain),0
B9 (TRIM5 RING domain),0
DHGAVGQEMCCPICCSEYVKGEVATELPCHHYFHKPCVSIWLQKSGTCPVCRCMFPPPL (PJA1 RING domain (UniProt Q8NG27)),0
B10 (TRIM5 RING domain),0
ASLPTSEEDLCPICYAHPISAVFQPCGHKSCKACINQHLMNNKDCFFCKTTIVSVEDWE (RNF123 RING domain (UniProt Q5XPI4)),0
B11 (VPS41 RING domain),0
B12 (RC3H1 RING domain),0

# Set 3
# Sequence: B13 (IAA12)
# Technique: two-hybrid
# Direction: higher = firmer interaction
# B13: IAA12 (Arabidopsis thaliana, UniProt Q38830); chain MRGVSELEVGKSNLPAESELELGLGLSLGGGAWKERGRILTAKDFPSVGSKRSAESSSHQGASPPRSSQVVGWPPIGLHRMNSLVNNQAMKAARAEEGDGEKKVVKNDELKDVSMKVNPKVQGLGFVKVNMDGVGIGRKVDMRAHSSYENLAQTLEEMFFGMTGTTCREKVKPLRLLDGSSDFVLTYEDKEGDWMLVGDVPWRMFINSVKRLRIMGTSEASGLAPRRQEQKDRQRNNPV
partner,setting,how to read,positive tests
"ARF7 1030-1164 (Arabidopsis thaliana, UniProt P93022)",,baseline: out of 4 tests,3
"IAA31 (Arabidopsis thaliana, UniProt Q8H174)",,baseline: out of 2 tests,2
"IAA29 (Arabidopsis thaliana, UniProt Q93WC4)",,baseline: out of 4 tests,0
"ARF17 (Arabidopsis thaliana, UniProt Q84WU6)",weak activation fusion,baseline: out of 4 tests,0
"ARF4 660-788 (Arabidopsis thaliana, UniProt Q9ZTX9)",,baseline: out of 4 tests,0
"IAA17 (Arabidopsis thaliana, UniProt P93830)",,baseline: out of 4 tests,2
"IAA30 (Arabidopsis thaliana, UniProt Q9M1R4)",weak activation fusion,baseline: out of 4 tests,3

# Set 4
# Target: ABI1, truncated, D143A, DHFR fusion (Arabidopsis thaliana, UniProt P49597)
# Technique: DHFR PCA, dose-response
# Sample: yeast
# Setting: Hill fit, not affinity, not high confidence
# Together with: (+)-ABA, dose series
# Direction: lower = more sensitive
# Starting sequence: PYL1, truncated, DHFR fusion (Arabidopsis thaliana, UniProt Q8VZS8); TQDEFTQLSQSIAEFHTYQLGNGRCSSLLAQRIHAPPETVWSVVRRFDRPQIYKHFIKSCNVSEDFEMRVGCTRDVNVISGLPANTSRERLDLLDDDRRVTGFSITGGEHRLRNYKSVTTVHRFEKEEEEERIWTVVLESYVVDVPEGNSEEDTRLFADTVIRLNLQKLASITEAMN
Substitution,ABA EC50
H110I,19.2 µM
R74K,25.8 µM
L169Q,548 µM
N149I,246 µM
C60K,820 µM
Q51Y,25.7 µM
V44N,20.4 µM
G81P,219 µM
S140M,226 µM
G148I,139 µM
L138D,29.6 µM
A84F,2.15 µM
S80V,651 µM
V40W,8.69 µM
L28E,799 µM
P83T,459 µM
V40M,490 µM
A84Q,0.523 µM
Y115Q,0.0247 µM
V142Y,28.8 µM
P83K,0.311 µM
P83F,430 µM
Y141S,0.228 µM
S80W,216 µM

# Set 5
# Target: CCNE1, cyclin fold, Cln2 fusion (human)
# Technique: yeast growth competition, sequencing
# Sample: yeast
# Setting: weak parent motif
# Baseline: not given
# Direction: higher = stronger binding
# Starting sequence: SGO1 docking peptide (human); PLAKRALKYTDEK
Substitution,normalised enrichment score
PLAKRALKYTDEA [K13A],0.226
PAAKRALKYTDEK [L2A],0.377
ALAKRALKYTDEK [P1A],0.286
PLAARALKYTDEK [K4A],0.0927
PLAKRAAKYTDEK [L7A],0.373
PLAKAALKYTDEK [R5A],-0.113

# Set 6
# Target: ATF2, bZIP domain (human)
# Technique: DHFR protein complementation
# Sample: yeast
# Setting: single substitutions, most at no-binding floor
# Baseline: wild-type JUN-FOS pair
# Direction: higher = stronger binding
# Starting sequence: JUN, bZIP domain (human); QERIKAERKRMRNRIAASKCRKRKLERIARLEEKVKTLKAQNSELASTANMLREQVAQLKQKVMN; partner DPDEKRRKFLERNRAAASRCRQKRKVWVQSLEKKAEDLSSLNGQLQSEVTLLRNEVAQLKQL
Substitution,binding fitness [natural log]
T48Q,-1.34
A29P,-1.37
E32D,-1.41
R53V,-1.46
A46Q,-1.33
E32N,-1.01
R30F,-1.38
K34D,-1.19
E32L,-1.37
E54I,-1.44
R30M,-1.39
S47I,-1.42
T37Q,-1.29
A40W,-1.5
N42C,-1.4
K39N,-1.42
S47H,-1.38
M51S,-1.46
Q41P,-1.44
E54Q,-1.23
E44P,-1.5
A29L,-1.41
A40R,-1.38
E54W,-1.47
Q41T,-1.53

# For quick reference, copied from above (set 1):
Sequence,E-score
ATCATGAG,0.0837
CCAGAGAG,-0.243
AACACGCC,-0.232
CCGAAGGA,-0.203
AAAAAACC,0.0433
GTGGGAGA,-0.137
CGCGTTTA,0.183
GGGGAAAA,0.0337
TCCCGTCA,-0.0761
ATAGGCGA,0.0303
GCGCGTCA,-0.14
AGTTGTTC,0.0687
